Published values pooled from the literature.
Every numbered part comes from another study and shows a few of its results, in no order. Positions count from the first letter of the parent shown.

Set 1
Target: CCND2, cyclin fold, Cln2 fusion (human)
Technique: yeast growth competition, sequencing
Sample: yeast
Setting: weak parent motif
Reference: not given
Direction: higher = stronger binding
Quantity: normalised enrichment score
Parent: CDKN1A docking peptide (human); SKACRRLFGPVDS
Substitution = SKACARLFGPVDS [R5A]; result = 0.0294
Substitution = SKACRRLFGPVNS [D12N]; result = 0.511
Substitution = SKARRRLFGPVDS [C4R]; result = 0.154
Substitution = SKACRRLFGWVDS [P10W]; result = -0.278
Substitution = SKACRWLFGPVDS [R6W]; result = 0.00123
Substitution = SKASRRLFGPVDS [C4S]; result = 0.207
Substitution = SKACRSLFGPVDS [R6S]; result = 0.0647
Substitution = SKACRRLFGPQDS [V11Q]; result = 0.906
Substitution = SKACRRLFGPNDS [V11N]; result = 0.579
Substitution = SKACRRLFGPWDS [V11W]; result = 0.73
Substitution = SKACRRLYGPVDS [F8Y]; result = 0.0147
Substitution = SKACRRLLGPVDS [F8L]; result = -0.444
Substitution = SKAKRRLFGPVDS [C4K]; result = -0.211
Substitution = SKACRRLFGPRDS [V11R]; result = 0.532
Substitution = SKACRRYFGPVDS [L7Y]; result = 0.184
Substitution = SKACRRLFMPVDS [G9M]; result = 0.569
Substitution = SKACKRLLGPVDS [R5K F8L]; result = -0.145
Substitution = SKACRRLFGPEDS [V11E]; result = 1.18
Substitution = SKACRRLFGPVES [D12E]; result = -0.0595
Substitution = SKACRRLFGSVDS [P10S]; result = 0.37
Substitution = SKACRRLFGDVDS [P10D]; result = 0.685
Substitution = SKVCRRLFGPVDS [A3V]; result = 0.0427
Substitution = SKACRRLFGPSDS [V11S]; result = 0.441

Set 2
Target: Sal-like protein 4, full length isoform B (SALL4, Homo sapiens, UniProt Q9UJQ4-2, residues 1-616)
Technique: universal PBM
Form: double-stranded DNA, one strand shown
Sample: in vitro
Tested at: not given
Setting: 8-mer, flanks averaged, mean of replicates
Direction: higher = stronger binding
Quantity: E-score
Strand = CTTACTCA; result = -0.0048
Strand = ACAGCCTA; result = 0.0312
Strand = ACGGCCCA; result = -0.259
Strand = ACCGTGTC; result = -0.159
Strand = GGTTATTA; result = 0.388
Strand = ATTGGCCG; result = -0.0739
Strand = GCTGCGCC; result = -0.349
Strand = GTGCCTGA; result = -0.16
Strand = CCGTCCCA; result = -0.0898
Strand = ACACTGGT; result = -0.0109
Strand = CCGGCCTA; result = -0.18
Strand = CGGTATTA; result = 0.131
Strand = GTGCCCAA; result = -0.0933
Strand = AATCCTCA; result = 0.0518
Strand = CCTCATCC; result = -0.187
Strand = CGAATTAA; result = 0.158
Strand = CGCAAATA; result = 0.241
Strand = GGTAGCTA; result = 0.0158
Strand = GCTCGAGA; result = -0.125
Strand = AACGGATT; result = 0.2
Strand = ACGGCTTA; result = -0.0615
Strand = GAAGGAGA; result = 0.0867
Strand = ACTGGCGC; result = -0.224
Strand = TACAGTGA; result = 0.171
Strand = AATAGCAA; result = 0.32

Set 3
Target: Interferon regulatory factor 3, full length, phosphomimetic (IRF3, Homo sapiens, UniProt Q14653, residues 1-427, S386D/S396D/S398D/S402D/T404D/S405D)
UniProt Q14653, sequence (whole entry, unmodified, looked up): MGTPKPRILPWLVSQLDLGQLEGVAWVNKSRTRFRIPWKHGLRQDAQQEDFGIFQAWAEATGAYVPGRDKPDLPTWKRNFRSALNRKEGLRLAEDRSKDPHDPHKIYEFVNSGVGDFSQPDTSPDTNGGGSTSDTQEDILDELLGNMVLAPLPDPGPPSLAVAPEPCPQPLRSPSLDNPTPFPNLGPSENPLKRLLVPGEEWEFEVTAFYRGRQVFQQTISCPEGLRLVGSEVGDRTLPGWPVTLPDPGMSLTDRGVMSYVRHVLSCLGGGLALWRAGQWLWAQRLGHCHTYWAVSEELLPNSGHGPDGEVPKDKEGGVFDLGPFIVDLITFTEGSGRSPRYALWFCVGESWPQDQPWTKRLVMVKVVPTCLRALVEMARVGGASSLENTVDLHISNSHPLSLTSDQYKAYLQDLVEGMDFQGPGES
Technique: protein-binding microarray
Form: double-stranded DNA, one strand shown
Sample: in vitro
Tested at: 2540 nM top
Setting: 60-bp whole probe
Added: salmon DNA 0.4 mg/ml
Reference: random background probes
Direction: higher = stronger binding
Quantity: fitted relative affinity
Shared flanks, not repeated: GCCTAGCAC … GTCTTGATTCGCTTGACGCTGCTG
Strand = GAGGCAAGGAGGGAGAACAGGTGCTAG; result = -1.27 z-score
Strand = TCATGTGTTACTTTCTAACTGTGCTAG; result = 1.72 z-score
Strand = TTAGGTTTCGACTTTAGGTTAGTGCTA; result = 3.57 z-score
Strand = TTAGATTCCAGTTTCGATTTGTGCTAG; result = 6.38 z-score
Strand = TTAGGACTGGACACTGGGTTTGTGCTA; result = -0.857 z-score
Strand = TCAACTTTGGCATGTCTTACTGTGCTA; result = -0.204 z-score
Strand = GGGATTTTTAGTTAGAAAAAGTGCTAG; result = 0.0124 z-score
Strand = AACACTCTTCTTTTGCTAATGTGCTAG; result = 0.834 z-score
Strand = TAAGGTCTCCTTTTCCTTTAGTGCTAG; result = 5.19 z-score
Strand = CATCATTGCTTTCTCTTTCAGTGCTAG; result = 2.31 z-score
Strand = TTAGATTTCAGTCGCGATTAGTGCTAG; result = 0.256 z-score
Strand = GACGTTTTTCATTTTTTTTTGTGCTAG; result = 1.68 z-score
Strand = GGTGGTCTGGGACCCTCCCCGTGCTAG; result = -1.14 z-score
Strand = TCAACTTGTCTTTTCACACTGTGCTAG; result = 1.21 z-score
Strand = GACGGTATCGACCTTCGGGACGTGCTA; result = 0.786 z-score
Strand = TCAATTCTCTGTTTATGACTGTGCTAG; result = 1.67 z-score
Strand = TCAATCATTGCTTTCTCACTGTGCTAG; result = 0.59 z-score
Strand = GACGATTTCAGTTCCCAGACGTGCTAG; result = 3.44 z-score

Set 4
Target: Histone acetyltransferase KAT6A, both winged helices, GST fusion (KAT6A, Homo sapiens, UniProt Q92794, residues 1-181)
Technique: protein binding microarray
Form: double-stranded DNA, one strand shown
Sample: in vitro
Tested at: not given
Setting: 8-mer, flanks averaged, mean of 2 arrays, mostly near background
Reference: not given
Direction: higher = stronger binding
Quantity: E-score
Residues (chain): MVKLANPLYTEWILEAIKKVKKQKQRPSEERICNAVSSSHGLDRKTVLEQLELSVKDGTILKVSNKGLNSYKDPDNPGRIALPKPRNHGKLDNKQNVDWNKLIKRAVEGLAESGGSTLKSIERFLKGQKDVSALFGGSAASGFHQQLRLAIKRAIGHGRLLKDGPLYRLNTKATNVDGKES
Strand = CCAGTCCG; result = 0.113
Strand = ACACCCGG; result = 0.117
Strand = AGGCACGC; result = 0.0683
Strand = ATAGACAT; result = -0.14
Strand = GAACTTAC; result = 0.0349
Strand = AAGGCTTG; result = -0.125
Strand = TACGATCA; result = -0.0506
Strand = AACAAGGC; result = -0.136
Strand = AGAGTCTA; result = -0.138
Strand = AGCCTTCC; result = -0.106
Strand = CAATTGCC; result = 0.0473
Strand = ACAAGGTC; result = -0.163
Strand = GGGTCGAA; result = -0.154
Strand = GACGTTAA; result = 0.0874
Strand = AGGTCAGA; result = -0.0999

Set 5
Target: RNA binding protein fox-1 homolog 2, RRM domain, GST-SBP tag (RBFOX2, Homo sapiens, UniProt O43251-10, residues 100-194)
Technique: RNA Bind-n-Seq
Form: RNA
Sample: in vitro
Tested at: 365 nM
Setting: natural RNA segment, single round, ends assumed
Reference: no-protein control
Direction: higher = stronger binding
Quantity: RBNS enrichment (R)
Shared flanks, not repeated: GGGAGUUCUACAGUCCGACGAUC … UGGAAUUCUCGGGUGCCAA
Target sequence (chain): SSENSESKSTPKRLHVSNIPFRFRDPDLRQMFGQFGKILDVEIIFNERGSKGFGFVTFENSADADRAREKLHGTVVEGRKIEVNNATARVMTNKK
Strand = UCCCCCGCACAGGUCCUGCUUCACUCACAUCCUCACCCGCUGCCAAGGUGGCGGUUUGUGCUUGCAGGGCAGCACUGCCCACCACCUGCCAGGGAGGAGCCUGAGCAGCU; result = 0.37
Strand = CUCUUUAUCUGUGUUACUAGUGCCUGGUAUGUAGUAGGUGCUCAAUAAAUGCAUAUUGAAUAACUAAGUGAAUUUCUUUUGGCAACUUUUUAAGGACAUGUGCUCUUAGU; result = 1.37
Strand = CAGAGUCCUGCCUAGGGCACCCGGGGAAGCCCGUCCCCACUUCCCCACUCUGUAAGUGUUUUGGAGUCUGACUAUUGCAGACACCCUCUGGCUGGGCUGCUCAGGGUGAC; result = 0.849
Strand = ACCCAGAGCUUGCCUGCCAGGGCUUGGUUCUCCAUUUCCACUGCUGACAUUUGAUUUCCAGUGUAUUUAAAUUACUCCGUGGUAAAUUUCAUUGUCUUUUCCUGUGUAAA; result = 0.798
Strand = UCUCAUCUCACUUAGGAUUGUACCCCAAAGUCCUACAUGAUUGGCUUUAAAUGUCCGGGAAAACUAAUUUCAGUAGCGUAGUUUGAUAGGUUAAAUGAGAUAGCAUUUUU; result = 4.7
Strand = UAAACAUUUGCUUUAAGAAAACAGUCUUGAAUUUCACAUGCUGCUAUUUUUAUAUUUUGCCAUUUUACAGUACUGUUUUGUUUUGAAUUCAUGCAUAUCAUUGAAAAUUU; result = 1.51
Strand = AAGAAUCAAUAGCAGCAUCUAAUCUCCCAGGGCUCCCUCCCACCAGCACCUGUGGUGGCUGCAAGUGGAAUCCUGGGGCCAAGGCUGCAGCUCAGGGCAAUGGCAGACCA; result = 0.582
Strand = AUAUUAAAUGAGCAUUUGACCUGUAGAUACAUAGUGUGCCGUUUGGCCAGAGCUCCUGGUGUCAAAUGCUGGGAACAGGAGUCUUCUUACAAAUUAUUUUUCUCCUCUUU; result = 0.388
Strand = UACAAAAAUAAAAAGCGGGAAUUUUCCCUUCGCUUGAAUAUUAUCCCUGUAUAUUGCAUGAAUGAGAGAUUUCCCAUAUUUCCAUCAGAGUAAUAAAUAUACUUGCUUUA; result = 0.621
Strand = GUGGAUUAAUGUCAAUGUUAAUCAGCCCCUCAAAGGGAGAGAAAAGCUGGACCUUUUCCCUUGCUGUACCAUAUUCAGCAUUUGAUUUCCAUGGGCCCCACCAUUUAUGU; result = 0.301
Strand = UGGCGCGAGAGCGCCUUGACACCUGUACCAAGCAAGCCACCCACUGCCAAGAGAUGUGAUAUAUAAGUGUAUAUAUUGUGCUGUGUUUGGGACCCUCCUCAUACAGCUCG; result = 0.359
Strand = AGGUGGAAAAGUAGCAGCUGUAUCGGGCUUCCUCAUCCUGCCUGUUCCCCCACACCUGCCAGGAUAUGGACAUCUUGGGAUAUCUCUUUACCACUGAAGUAGAAUUGAUU; result = 0.723

A few entries again (set 1):
Substitution = SKACRWLFGPVDS [R6W]; result = 0.00123
Substitution = SKASRRLFGPVDS [C4S]; result = 0.207
Substitution = SKACRSLFGPVDS [R6S]; result = 0.0647
Substitution = SKACRRLFGPQDS [V11Q]; result = 0.906
Substitution = SKACRRLFGPNDS [V11N]; result = 0.579
Substitution = SKACRRLFGPWDS [V11W]; result = 0.73
Substitution = SKACRRLYGPVDS [F8Y]; result = 0.0147
Substitution = SKACRRLLGPVDS [F8L]; result = -0.444
Substitution = SKAKRRLFGPVDS [C4K]; result = -0.211
Substitution = SKACRRLFGPRDS [V11R]; result = 0.532
